Results gathered from unrelated publications.
± marks the error that the study gave.
Cereblon/Ikaros: Cereblon/Ikaros (Homo sapiens, UniProt Q13422+Q96SW2)
UniProt Q96SW2, sequence (whole entry, looked up): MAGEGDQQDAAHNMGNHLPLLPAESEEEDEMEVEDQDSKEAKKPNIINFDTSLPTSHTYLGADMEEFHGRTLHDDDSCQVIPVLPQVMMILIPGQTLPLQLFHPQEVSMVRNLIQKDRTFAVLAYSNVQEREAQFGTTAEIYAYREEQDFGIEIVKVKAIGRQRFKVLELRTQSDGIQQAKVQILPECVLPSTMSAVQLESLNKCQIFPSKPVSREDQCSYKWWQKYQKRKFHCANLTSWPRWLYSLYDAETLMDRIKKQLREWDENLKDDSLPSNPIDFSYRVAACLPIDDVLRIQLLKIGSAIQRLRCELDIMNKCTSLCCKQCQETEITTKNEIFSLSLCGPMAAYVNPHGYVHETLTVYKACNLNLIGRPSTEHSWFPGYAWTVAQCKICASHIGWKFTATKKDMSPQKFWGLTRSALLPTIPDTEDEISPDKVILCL
UniProt Q13422, sequence (whole entry, looked up): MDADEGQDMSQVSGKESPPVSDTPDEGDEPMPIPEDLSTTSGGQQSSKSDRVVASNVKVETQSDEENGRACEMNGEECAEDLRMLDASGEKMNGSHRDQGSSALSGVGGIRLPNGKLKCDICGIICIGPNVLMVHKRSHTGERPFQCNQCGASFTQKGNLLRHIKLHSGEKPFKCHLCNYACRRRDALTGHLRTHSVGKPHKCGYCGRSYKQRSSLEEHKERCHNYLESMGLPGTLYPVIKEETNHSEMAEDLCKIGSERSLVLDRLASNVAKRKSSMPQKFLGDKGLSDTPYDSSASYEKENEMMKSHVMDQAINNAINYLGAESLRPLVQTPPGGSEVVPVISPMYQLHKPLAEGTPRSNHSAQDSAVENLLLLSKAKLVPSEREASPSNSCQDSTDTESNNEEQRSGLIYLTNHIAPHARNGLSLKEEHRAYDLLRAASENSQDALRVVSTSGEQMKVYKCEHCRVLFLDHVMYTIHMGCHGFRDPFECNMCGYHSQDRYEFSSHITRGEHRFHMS
IDE: Insulin-degrading enzyme (IDE, Homo sapiens, UniProt P14735)
USP33 ZnF-UBD domain: Ubiquitin carboxyl-terminal hydrolase 33, ZnF-UBD domain (USP33, Homo sapiens, UniProt Q8TEY7)
UniProt Q8TEY7, sequence (whole entry, looked up): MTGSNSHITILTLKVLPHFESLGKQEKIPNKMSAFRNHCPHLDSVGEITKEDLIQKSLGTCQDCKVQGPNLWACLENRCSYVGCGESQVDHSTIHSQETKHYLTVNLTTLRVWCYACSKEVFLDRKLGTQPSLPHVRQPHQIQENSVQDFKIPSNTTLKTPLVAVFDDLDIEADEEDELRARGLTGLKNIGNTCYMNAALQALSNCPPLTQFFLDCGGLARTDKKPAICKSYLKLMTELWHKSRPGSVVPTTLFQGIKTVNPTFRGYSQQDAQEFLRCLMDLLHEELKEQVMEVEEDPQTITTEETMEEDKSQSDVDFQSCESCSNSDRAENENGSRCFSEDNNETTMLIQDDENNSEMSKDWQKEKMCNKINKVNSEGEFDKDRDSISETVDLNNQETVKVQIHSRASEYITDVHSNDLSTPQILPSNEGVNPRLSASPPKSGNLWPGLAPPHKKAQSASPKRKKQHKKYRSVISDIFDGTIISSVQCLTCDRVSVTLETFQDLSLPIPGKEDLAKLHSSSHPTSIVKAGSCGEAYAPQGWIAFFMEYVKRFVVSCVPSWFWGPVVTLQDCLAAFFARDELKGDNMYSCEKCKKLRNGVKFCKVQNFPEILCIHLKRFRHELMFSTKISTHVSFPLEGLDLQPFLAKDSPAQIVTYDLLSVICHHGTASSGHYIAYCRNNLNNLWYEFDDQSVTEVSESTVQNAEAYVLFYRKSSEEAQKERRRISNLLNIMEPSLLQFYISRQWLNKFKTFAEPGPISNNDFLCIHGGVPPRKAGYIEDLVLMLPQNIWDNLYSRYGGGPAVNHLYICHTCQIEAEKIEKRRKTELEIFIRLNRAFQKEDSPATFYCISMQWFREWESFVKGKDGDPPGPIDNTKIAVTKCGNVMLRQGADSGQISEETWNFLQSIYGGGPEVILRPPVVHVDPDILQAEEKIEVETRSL
UniProt P28074, sequence (whole entry, looked up): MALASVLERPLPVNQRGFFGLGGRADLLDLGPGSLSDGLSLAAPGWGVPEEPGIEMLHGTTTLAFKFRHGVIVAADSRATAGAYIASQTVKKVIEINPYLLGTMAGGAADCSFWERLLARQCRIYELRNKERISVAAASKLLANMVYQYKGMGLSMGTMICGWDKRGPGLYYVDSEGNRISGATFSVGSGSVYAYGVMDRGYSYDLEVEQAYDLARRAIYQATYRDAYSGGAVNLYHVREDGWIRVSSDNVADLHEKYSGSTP

The IC50 of `Cc1ncc(C(=O)N[C@@H](CCC2CCCCC2)C(=O)N[C@@H](CC(C)C)C(=O)N[C@H](/C=C/S(C)(=O)=O)Cc2ccc(CN)cc2)s1` is reported as 0.46 µM (PSMB5 (Homo sapiens, UniProt P28074); competitive ABPP; Raji cell lysate).
For `NS(=O)(=O)c1nnc(NC(=O)CC2CCC(F)(F)CC2)s1`, the Ki was 0.0648 µM (Enterococcus faecium γ-carbonic anhydrase; CO2 hydration, inhibitor, stopped-flow kinetics).
With `N#Cc1cccc(C(=O)Nc2ccc3c(c2)CN(C2CCC(=O)NC2=O)C3=O)c1` (stereo not drawn) the DC50 was > 10 µM (Cereblon/Ikaros; degrader, live-cell HiBiT kinetic; Jurkat Ikaros-HiBiT LgBiT).
For `CCC(=O)N1[C@H](CO)[C@H](c2ccc(-c3ccccc3OC)cc2)[C@@H]1CNC(C)=O`, the EC50 was 5.8 µM (IDE; enzyme activity, inhibitor, fluorogenic kinetic; together with: Mca-RPPGFSAFK(Dnp)-OH substrate).
For `NS(=O)(=O)c1nnc(NC(=O)COC2CCCCC2)s1`, the Ki was 0.284 µM (Enterococcus faecium γ-carbonic anhydrase; CO2 hydration, inhibitor, stopped-flow kinetics).
With `O=C(O)CCc1ccno1` the Kd was > 1000 µM (USP33 ZnF-UBD domain).
`NS(=O)(=O)c1nnc(NC(=O)CN2CC3CCC(C2)O3)s1` gave a Ki of 0.0681 µM (Enterococcus faecium γ-carbonic anhydrase; CO2 hydration, inhibitor, stopped-flow kinetics).
`COc1ccccc1C#Cc1ccc([C@H]2[C@H](CO)N3CCCCN(C(=O)C4CCC4)C[C@@H]23)cc1` gave an EC50 of 2.7 µM (IDE; enzyme activity, inhibitor, fluorogenic kinetic; together with: Mca-RPPGFSAFK(Dnp)-OH substrate).
`Nc1ncnc2c1ncn2[C@@H]1O[C@H](COP(=O)(O)OP(=O)(O)O)[C@@H](O)[C@H]1O` gave a Ki of 31.2 ± 0.9 µM (klp-6 (Caenorhabditis elegans, UniProt G5EFQ4, S116T); microtubule gliding velocity, competitive inhibitor, single-molecule TIRF; pH 7.4, together with: Mg-ATP varied, porcine microtubules).
For `O=C1CCC(N2C(=O)C=C(Nc3cccc(C4(NCCc5ccc(C(F)(F)F)c(Cl)c5)CCCC4)c3)C2=O)C(=O)N1` (stereo not drawn), the DC50 was 0.04 ± 0.004 µM (Cereblon/Ikaros; degrader; human cells).
`O=C(O)Cc1cccc2cccnc12` gave a Kd of > 1000 µM (USP33 ZnF-UBD domain).
With `Cc1ccc(NC2=CC(=O)N(C3CCC(=O)NC3=O)C2=O)cc1C(C)(C)NCCc1ccc(C(F)(F)F)c(Cl)c1` (stereo not drawn) the DC50 was 0.93 ± 0.021 µM (Cereblon/Ikaros; degrader, HiBiT luminescence, measured: endogenous HiBiT-tagged protein).
With `Cc1cccc(-c2ccc([C@@H]3[C@@H](CO)N4C/C=C\CN(S(=O)(=O)c5cccnc5C)C[C@@H]34)cc2)c1C` the EC50 was 0.022 µM (IDE; enzyme activity, inhibitor, fluorescence kinetic; together with: Mca-RPPGFSAFK(Dnp)-OH substrate).
The Kd of `O=C(O)CNc1ncccn1` is reported as > 1000 µM (USP33 ZnF-UBD domain).
With `Cc1cccc(-c2ccc([C@@H]3[C@@H](CO)N4C/C=C\CN(S(=O)(=O)c5cn(C)nc5C(F)(F)F)C[C@@H]34)cc2)c1C` the EC50 was 0.065 µM (IDE; enzyme activity, inhibitor, fluorescence kinetic; together with: Mca-RPPGFSAFK(Dnp)-OH substrate).
With `NS(=O)(=O)c1nnc(NC(=O)C2CCC3(CCCCC3)C2)s1` (stereo not drawn) the Ki was 0.199 µM (Enterococcus faecium γ-carbonic anhydrase; CO2 hydration, inhibitor, stopped-flow kinetics).
The EC50 of `Cc1cccc(-c2ccc([C@@H]3[C@@H](C(=O)O)N4CCCCN(S(=O)(=O)c5ccccc5C(F)(F)F)C[C@@H]34)cc2)c1C` is reported as 0.5 µM (IDE; enzyme activity, inhibitor, fluorescence kinetic; together with: Mca-RPPGFSAFK(Dnp)-OH substrate).
The DC50 of `CCC(C)(NCCc1cc(C(F)(F)F)cc(C(F)(F)F)c1)c1cccc(NC2=CC(=O)N(C3CCC(=O)NC3=O)C2=O)c1` (stereo not drawn) is reported as 0.69 ± 0.31 µM (Cereblon/Ikaros; degrader, HiBiT luminescence, measured: endogenous HiBiT-tagged protein).

Excerpt of the above:
With `Cc1cccc(-c2ccc([C@@H]3[C@@H](CO)N4C/C=C\CN(S(=O)(=O)c5cccnc5C)C[C@@H]34)cc2)c1C` the EC50 was 0.022 µM (IDE; enzyme activity, inhibitor, fluorescence kinetic; together with: Mca-RPPGFSAFK(Dnp)-OH substrate).
The Kd of `O=C(O)CNc1ncccn1` is reported as > 1000 µM (USP33 ZnF-UBD domain).
